Assay results pooled from the literature.
Parts stem from different laboratories: compare values within a part only.
UniProt O75716, sequence (whole entry, looked up): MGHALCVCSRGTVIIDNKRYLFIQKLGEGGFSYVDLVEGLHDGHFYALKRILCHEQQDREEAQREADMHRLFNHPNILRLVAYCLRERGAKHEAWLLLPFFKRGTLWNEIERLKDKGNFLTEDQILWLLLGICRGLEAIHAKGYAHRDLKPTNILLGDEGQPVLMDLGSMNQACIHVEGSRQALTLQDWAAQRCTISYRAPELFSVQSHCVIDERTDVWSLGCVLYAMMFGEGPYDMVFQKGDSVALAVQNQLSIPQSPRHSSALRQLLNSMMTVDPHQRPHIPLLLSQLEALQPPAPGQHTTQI

Block 1 — method: RNA Bind-n-Seq; molecule type: RNA; matrix: in vitro; concentration: not given; reference: input RNA pool; reading: higher = stronger binding
Target: RING finger protein unkempt homolog, zinc fingers 1-6, GST-SBP tag (UNK, Homo sapiens, UniProt Q9C0B0, residues 30-357)
UniProt Q9C0B0, sequence (30-357, looked up): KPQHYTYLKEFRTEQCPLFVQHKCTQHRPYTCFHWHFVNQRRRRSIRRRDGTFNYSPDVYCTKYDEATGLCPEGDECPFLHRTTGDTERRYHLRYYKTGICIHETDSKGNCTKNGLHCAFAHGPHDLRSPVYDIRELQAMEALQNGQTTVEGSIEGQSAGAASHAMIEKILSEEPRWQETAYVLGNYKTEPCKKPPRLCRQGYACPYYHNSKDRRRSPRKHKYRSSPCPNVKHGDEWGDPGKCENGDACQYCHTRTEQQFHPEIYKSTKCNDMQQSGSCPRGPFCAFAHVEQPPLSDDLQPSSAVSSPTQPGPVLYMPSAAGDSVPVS
Setting: RNA with constant flanks, human and mouse sites, ends assumed
Shared flanks, not repeated: GGGAGUUCUACAGUCCGACGAUC … CAACAGAGGAUUGAGCAUCA
`AUGAUCUGGGACACCAGGUGUAACAAAAAAGAUGGAUUUUAUAGACAAGUGAAUCAAAUCAGUGGAGCUCACAAUACUGCAGACAAGCAAACCCCUUCAAAGCCCAAGAAGAAACAAAAU` has a bound/input enrichment of 0.568 ratio.
For `UCCCGCCUACAGAAAGAUUUUGAGAGACAUUUUAAGGACCUCAGGUUCAUUAAAAAGGACUUAGAACUUUUCUCAAAUCCAUUUAGCUUUAAACCGGAAUAUGCGCCUAUUUCUGUAAGA`, the bound/input enrichment was 3.01 ratio.
`AGCAAUGAAAAGACAGCCCUCCUCCCAGCCCCCACCUCACUAGGAGACACGAACGUUACCGUAGAAGAGCAAUUUAACUCAAUAAAUUUAUCUUUUCAGGAUGAUCCAGACUCCAGUCCC` has a bound/input enrichment of 0.325 ratio.
`UUUAUGGCAUGUAAUGGUGUUUAGUAAUAUUUUAAUGUAGAUUUUGAUUUAUUUCAGCAAUAGUAAUUUUAAGAUAUUCUUUGAAUGAAAGUGUCUUCGUUUCUAUGAUACAGGUCAUUU` has a bound/input enrichment of 98.7 ratio.
`GGCAGCACAGCUGUUGGGUCUCAGUGCCCUUUUUUACCUUCUGAACAAGGGAAUAAUGAAGAGACUAUUUCGUCUGUUGAUGAACUGAAAAUUCCCAAAGACUGUGAUCGUUAUGAUGAU` has a bound/input enrichment of 0.679 ratio.
The bound/input enrichment of `UUUCUCACCGUGUACAUCAAAAACAUCUUUCUCAAUCAAGUCUUGGCUGAGAUCAACAAGGAGAUUGAAGGAGUCACUAAAACAUCUGACCCUUUGAAGAUUCUGGCCAACGCAGACACC` is reported as 0.165 ratio.
`GUACGAGGCAUAUUAAUGAAUGAGGAGGUCCUAGGAAACCAGAUUCACUUGCAUGUGACAACUAGGGAAUAUGGUGCCCGGGUCUCCAACCUACACAUGUACUCAGCUGUUUGUGCUGAC` has a bound/input enrichment of 0.267 ratio.
`GGAGGCUAUGGAGGCUAUGAUGAUUAUAAUGGCUAUAAUGAUGGCUAUGGAUUUGGUUCAGAUAGAUUUGGAAGAGACCUCAAUUAUUGUUUUUCAGGAAUGUCUGACCACAGAUAUGGG` gave a bound/input enrichment of 0.571 ratio.

Block 2 — method: universal PBM; molecule type: double-stranded DNA, one strand shown; matrix: in vitro; concentration: not given; reading: higher = stronger binding
Target: Sal-like protein 4, full length isoform B (SALL4, Homo sapiens, UniProt Q9UJQ4-2, residues 1-616)
Setting: 8-mer, flanks averaged, mean of replicates
For `CAAGACAG`, the E-score was -0.12.
For `CCCACCGC`, the E-score was -0.195.
The E-score of `GCTCCGCA` is reported as -0.234.
`AGCCAGAG` gave an E-score of -0.192.
`CATTCCGG` has an E-score of -0.236.
`AGTGGCCA` gave an E-score of -0.106.
For `CAGAGTCA`, the E-score was -0.157.
For `GAGAGGTA`, the E-score was -0.219.

Block 3 — method: protein binding microarray; molecule type: double-stranded DNA, one strand shown; matrix: in vitro; concentration: not given; reference: not given; reading: higher = stronger binding
Target: Histone acetyltransferase KAT6A, winged helix 2, GST fusion (KAT6A, Homo sapiens, UniProt Q92794, residues 85-181)
Setting: 8-mer, flanks averaged, mean of 2 arrays, mostly near background
Construct (chain): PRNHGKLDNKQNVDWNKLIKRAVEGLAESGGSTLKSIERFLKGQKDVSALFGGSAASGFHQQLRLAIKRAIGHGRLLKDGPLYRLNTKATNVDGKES
For `GTTTTTCA`, the E-score was 0.0398.
The E-score of `CCCTCATC` is reported as -0.186.
`AGTTTACA` has an E-score of -0.0234.
`CTCGAGGA` has an E-score of -0.0267.
The E-score of `AGCGTGAT` is reported as -0.0581.
For `CATTAGAC`, the E-score was -0.181.
`CCGGCAGC` gave an E-score of 0.144.
With `CGTTTCAG` the E-score was -0.0115.

Mixed results
For `CN(C)S(=O)(=O)c1ccc2c(c1)/C(=C/c1cc3c([nH]1)CCCC3)C(=O)N2`, the remaining activity was 104% (Serine/threonine-protein kinase 16 (STK16, Homo sapiens, UniProt O75716); enzyme activity, inhibitor; 0.5 µM; reference: control).

A few entries again (block 1):
The bound/input enrichment of `UUUCUCACCGUGUACAUCAAAAACAUCUUUCUCAAUCAAGUCUUGGCUGAGAUCAACAAGGAGAUUGAAGGAGUCACUAAAACAUCUGACCCUUUGAAGAUUCUGGCCAACGCAGACACC` is reported as 0.165 ratio.
`GGAGGCUAUGGAGGCUAUGAUGAUUAUAAUGGCUAUAAUGAUGGCUAUGGAUUUGGUUCAGAUAGAUUUGGAAGAGACCUCAAUUAUUGUUUUUCAGGAAUGUCUGACCACAGAUAUGGG` gave a bound/input enrichment of 0.571 ratio.
`GGCAGCACAGCUGUUGGGUCUCAGUGCCCUUUUUUACCUUCUGAACAAGGGAAUAAUGAAGAGACUAUUUCGUCUGUUGAUGAACUGAAAAUUCCCAAAGACUGUGAUCGUUAUGAUGAU` has a bound/input enrichment of 0.679 ratio.
